Assay results from different studies.
Each line is one published result; not all experiments were run side by side. Values joined by “and” are separate records of one study, mostly repeats; a detail may differ. ± gives the spread as reported.

Structure (SMILES) = CCN(C)C(=O)Oc1ccccc1/C=C1\Cc2cc(OC)c(OC)cc2C1=O; system = male Sprague-Dawley rat, plasma; conditions = oral, 100 mg/kg, single dose; endpoint = AUC(0-inf); result = 3390 ng·h/mL
Structure (SMILES) = C/C(=N\OCCCN1CCCCC1)c1ccc(C(F)(F)F)cc1; system = mouse, plasma; conditions = oral, 150 mg/kg once daily, day 1; endpoint = Cmax; result = 2740 ± 339 ng/mL
Structure (SMILES) = CN1Cc2cc(Cl)ccc2-n2c(nnc2C2CCN(c3cccc([18F])n3)CC2)C1; system = C57BL/6 mouse male, small intestine; conditions = intravenous, dose not given, 5 min, with: blocking agent 10 mg/kg; endpoint = tissue uptake; result = 6.34 ± 2.9 %ID/g
Structure (SMILES) = CSCC[C@H](N)C(=O)N[C@@H](C)C(=O)N[C@@H](Cc1c[nH]c2ccccc12)C(=O)N[C@@H](Cc1c[nH]cn1)C(=O)N[C@@H](CC(=O)O)C(=O)N[C@@H](CC(=O)O)C(=O)N[C@@H](CCC(=O)O)C(=O)N[C@@H](CCC(=O)O)C(=O)N[C@@H](Cc1ccccc1)C(=O)N[C@@H](C)C(=O)N[C@@H](CCCNC(=N)N)C(=O)N[C@@H](CCCNC(=N)N)C(=O)N[C@@H](CCCNC(=N)N)C(=O)N[C@@H](CCCNC(=N)N)C(=O)NCCCCCC(=O)NCCCCC(NC(=O)CCCCCNC(=O)[C@H](CCCNC(=N)N)NC(=O)[C@H](CCCNC(=N)N)NC(=O)[C@H](CCCNC(=N)N)NC(=O)[C@H](CCCNC(=N)N)NC(=O)[C@H](C)NC(=O)[C@H](Cc1ccccc1)NC(=O)[C@H](CCC(=O)O)NC(=O)[C@H](CCC(=O)O)NC(=O)[C@H](CC(=O)O)NC(=O)[C@H](CC(=O)O)NC(=O)[C@H](Cc1c[nH]cn1)NC(=O)[C@H](Cc1c[nH]c2ccccc12)NC(=O)[C@H](C)NC(=O)[C@@H](N)CCSC)C(=O)NCCCCC(NC(=O)C(CCCCNC(=O)CCCCCNC(=O)[C@H](CCCNC(=N)N)NC(=O)[C@H](CCCNC(=N)N)NC(=O)[C@H](CCCNC(=N)N)NC(=O)[C@H](CCCNC(=N)N)NC(=O)[C@H](C)NC(=O)[C@H](Cc1ccccc1)NC(=O)[C@H](CCC(=O)O)NC(=O)[C@H](CCC(=O)O)NC(=O)[C@H](CC(=O)O)NC(=O)[C@H](CC(=O)O)NC(=O)[C@H](Cc1c[nH]cn1)NC(=O)[C@H](Cc1c[nH]c2ccccc12)NC(=O)[C@H](C)NC(=O)[C@@H](N)CCSC)NC(=O)CCCCCNC(=O)[C@H](CCCNC(=N)N)NC(=O)[C@H](CCCNC(=N)N)NC(=O)[C@H](CCCNC(=N)N)NC(=O)[C@H](CCCNC(=N)N)NC(=O)[C@H](C)NC(=O)[C@H](Cc1ccccc1)NC(=O)[C@H](CCC(=O)O)NC(=O)[C@H](CCC(=O)O)NC(=O)[C@H](CC(=O)O)NC(=O)[C@H](CC(=O)O)NC(=O)[C@H](Cc1c[nH]cn1)NC(=O)[C@H](Cc1c[nH]c2ccccc12)NC(=O)[C@H](C)NC(=O)[C@@H](N)CCSC)C(N)=O (stereo partly drawn); system = C57BL/6 mouse female, femur; conditions = dose not given, 3 h; how to read = baseline: total; endpoint = tissue distribution; result = 0.97% and 1.74% and 2.07%
Structure (SMILES) = CC[C@H](C)[C@H](NC(=O)[C@H](CCCCN)NC(=O)CNC(=O)[C@H](CC(C)C)NC(=O)[C@H](Cc1ccccc1)NC(=O)[C@H](CCCCN)NC(=O)[C@H](CO)NC(=O)[C@H](Cc1ccccc1)NC(=O)[C@H](Cc1c[nH]c2ccccc12)NC(=O)[C@H](CCC(N)=O)NC(=O)[C@@H](NC(=O)[C@H](Cc1ccccc1)NC(=O)CCCCCNC(=O)CN1CCN(CC(=O)O)CCN(CC(=O)O)CCN(CC(=O)O)CC1)C(C)C)C(=O)N[C@@H](CCC(=O)O)C(=O)N1CCC[C@H]1C(=O)N[C@@H](CC(=O)O)C(=O)N[C@H](C(=O)N[C@@H](CO)C(=O)N[C@@H](CCC(N)=O)C(=O)N[C@H](C(=O)N[C@@H](CCC(N)=O)C(=O)N[C@@H](CC(=O)O)C(=O)N1CCC[C@H]1C(=O)N[C@@H](CC(N)=O)C(=O)N[C@@H](CC(=O)O)C(=O)N[C@@H](CCC(N)=O)C(=O)N[C@@H](Cc1ccc(O)cc1)C(=O)N[C@@H](CCC(=O)O)C(=O)N1CCC[C@H]1C(=O)N[C@@H](Cc1ccccc1)C(=O)O)C(C)C)C(C)C [copper-64 labelled]; test = dynamic PET; system = mouse, CT26 tumour, checkpoint inhibitor-treated, tumour; conditions = intravenous, 100 µCi/mouse, 2340 s; endpoint = SUVmean; result = 5.34 SUV
Structure (SMILES) = C[C@H](O)[C@@H](NC(=O)[C@H]1CCCN1C(=O)[C@@H](CCCCN)NC(=O)[C@@H](CO)NC(=O)[C@@H](Cc1ccc(O)cc1)NC(=O)[C@@H](CC(N)=O)NC(=O)CCOCCOCCOCCNC(=O)CN1CCN(CC(=O)O)CCN(CC(=O)O)CCN(CC(=O)O)CC1)C(=O)N[C@H](CC(=O)O)C(=O)N[C@H](CCCNC(=N)N)C(=O)N[C@H](CCC(N)=O)C(=O)N[C@H](Cc1ccc(O)cc1)C(=O)N[C@H](Cc1c[nH]cn1)C(=O)N[C@H](Cc1ccccc1)C(N)=O [copper-64 labelled]; test = ex vivo gamma counting; system = C57BL/6J mouse, male, normal, testis; conditions = intravenous, 1.85 MBq, 60 min; endpoint = tissue uptake; result = 0.12 ± 0.01 %ID/g
Structure (SMILES) = O=C1NC2(CC2)COc2ncc(F)cc2[C@H]2COCCN2c2ccn3ncc1c3n2; system = Sprague-Dawley rat, male, serum; conditions = oral, 20 mg/kg/day, end of recovery, 4-week subacute toxicity; endpoint = serum urea; result = 4.2 ± 0.71 mmol/L
Structure (SMILES) = CCCCCCCCCCCCCCCC(=O)N[C@@H](CCC(=O)NCCOCCOCCC(=O)NCCOCCOCCC(=O)NCCCC[C@H](NC(=O)[C@H](CC(=O)O)NC(=O)[C@H](CC(C)C)NC(=O)[C@H](Cc1ccc(O)cc1)NC(=O)[C@H](CCCCN)NC(=O)[C@H](CO)NC(=O)[C@H](Cc1ccc(O)cc1)NC(=O)[C@H](CC(=O)O)NC(=O)[C@H](CO)NC(=O)[C@@H](NC(=O)[C@H](Cc1ccccc1)NC(=O)[C@@H](NC(=O)CNC(=O)[C@H](CCC(N)=O)NC(=O)[C@@H](CO)NC(=O)[C@@H](N)Cc1c[nH]cn1)[C@@H](C)O)[C@@H](C)O)C(=O)N[C@@H](CCCNC(=N)N)C(=O)N[C@@H](CCCNC(=N)N)C(=O)N[C@@H](C)C(=O)N[C@@H](CCC(N)=O)C(=O)N[C@@H](CC(=O)O)C(=O)N[C@@H](Cc1ccccc1)C(=O)N[C@H](C(=O)N[C@@H](CCC(N)=O)C(=O)N[C@@H](Cc1c[nH]c2ccccc12)C(=O)N[C@@H](CC(C)C)C(=O)N[C@@H](CC(C)C)C(=O)N[C@@H](CC(N)=O)C(=O)N[C@H](C(=O)NCC(=O)NCC(=O)N1CCC[C@H]1C(=O)N[C@@H](CO)C(=O)N[C@@H](CO)C(=O)NCC(=O)N[C@@H](C)C(=O)N1CCC[C@H]1C(=O)N1CCC[C@H]1C(=O)N1CCC[C@H]1C(=O)N[C@@H](CO)C(N)=O)[C@@H](C)O)C(C)C)C(=O)O; system = rhesus monkey, female; conditions = subcutaneous, 60 µg/kg, day 1, median; endpoint = Tmax; result = 2 h
Structure (SMILES) = CC(C)Oc1c(NC(=O)c2ccc(NC(=O)[C@H](CC(N)=O)NC(=O)c3ccc(/N=N/c4ccccc4)cc3)cc2)ccc(C(=O)Nc2ccc(C(=O)O)cc2)c1O; test = absorbance kinetics; conditions = 30 °C, photostationary to ground state; endpoint = thermal relaxation half-life; result = 44.5 h
Structure (SMILES) = COc1cnc2cccc(N3CCc4c(cc(Cn5ccnc5)cc4-c4cn(C)nc4C(F)(F)F)C3=O)c2c1; system = BALB/c nude mice, MV4-11 xenograft; conditions = intraperitoneal, 100 mg/kg, day 17; endpoint = body weight; result = 23.5 g and 24.5 g and 22.2 g and 22.8 g
Structure (SMILES) = N=C(N)NCCC[C@@H](NC(=O)[C@H](N)Cc1c[nH]c2ccccc12)C(=O)N[C@H](CCCCN)C(=O)N[C@H](Cc1c[nH]c2ccccc12)C(=O)N[C@H](CCCNC(=N)N)C(=O)N[C@H](CCCCN)C(=O)N[C@H](Cc1c[nH]c2ccccc12)C(=O)N[C@H](CCCNC(=N)N)C(=O)N[C@H](CCCCN)C(=O)N[C@H](Cc1c[nH]c2ccccc12)C(=O)N[C@H](CCCNC(=N)N)C(=O)N[C@H](CCCCN)C(N)=O; system = mouse; conditions = intraperitoneal, 40 mg/kg single dose, day 3; endpoint = survival; result = 75%
Structure (SMILES) = N#[11C]c1ccc(-c2csc(NN=C3CCCC3)n2)cc1; test = dynamic PET/CT; system = C57BL/6 mouse, heart; conditions = intravenous, dose not given, end of PET scan; endpoint = radioactivity uptake; result = 0.5 SUV

Repeated from above:
Structure (SMILES) = CCCCCCCCCCCCCCCC(=O)N[C@@H](CCC(=O)NCCOCCOCCC(=O)NCCOCCOCCC(=O)NCCCC[C@H](NC(=O)[C@H](CC(=O)O)NC(=O)[C@H](CC(C)C)NC(=O)[C@H](Cc1ccc(O)cc1)NC(=O)[C@H](CCCCN)NC(=O)[C@H](CO)NC(=O)[C@H](Cc1ccc(O)cc1)NC(=O)[C@H](CC(=O)O)NC(=O)[C@H](CO)NC(=O)[C@@H](NC(=O)[C@H](Cc1ccccc1)NC(=O)[C@@H](NC(=O)CNC(=O)[C@H](CCC(N)=O)NC(=O)[C@@H](CO)NC(=O)[C@@H](N)Cc1c[nH]cn1)[C@@H](C)O)[C@@H](C)O)C(=O)N[C@@H](CCCNC(=N)N)C(=O)N[C@@H](CCCNC(=N)N)C(=O)N[C@@H](C)C(=O)N[C@@H](CCC(N)=O)C(=O)N[C@@H](CC(=O)O)C(=O)N[C@@H](Cc1ccccc1)C(=O)N[C@H](C(=O)N[C@@H](CCC(N)=O)C(=O)N[C@@H](Cc1c[nH]c2ccccc12)C(=O)N[C@@H](CC(C)C)C(=O)N[C@@H](CC(C)C)C(=O)N[C@@H](CC(N)=O)C(=O)N[C@H](C(=O)NCC(=O)NCC(=O)N1CCC[C@H]1C(=O)N[C@@H](CO)C(=O)N[C@@H](CO)C(=O)NCC(=O)N[C@@H](C)C(=O)N1CCC[C@H]1C(=O)N1CCC[C@H]1C(=O)N1CCC[C@H]1C(=O)N[C@@H](CO)C(N)=O)[C@@H](C)O)C(C)C)C(=O)O; system = rhesus monkey, female; conditions = subcutaneous, 60 µg/kg, day 1, median; endpoint = Tmax; result = 2 h
